Assay results gathered from unrelated publications.
Protocols differ between the studies behind these lines. ± gives the spread as reported.
Chain of UniProt P33261 (whole entry, looked up): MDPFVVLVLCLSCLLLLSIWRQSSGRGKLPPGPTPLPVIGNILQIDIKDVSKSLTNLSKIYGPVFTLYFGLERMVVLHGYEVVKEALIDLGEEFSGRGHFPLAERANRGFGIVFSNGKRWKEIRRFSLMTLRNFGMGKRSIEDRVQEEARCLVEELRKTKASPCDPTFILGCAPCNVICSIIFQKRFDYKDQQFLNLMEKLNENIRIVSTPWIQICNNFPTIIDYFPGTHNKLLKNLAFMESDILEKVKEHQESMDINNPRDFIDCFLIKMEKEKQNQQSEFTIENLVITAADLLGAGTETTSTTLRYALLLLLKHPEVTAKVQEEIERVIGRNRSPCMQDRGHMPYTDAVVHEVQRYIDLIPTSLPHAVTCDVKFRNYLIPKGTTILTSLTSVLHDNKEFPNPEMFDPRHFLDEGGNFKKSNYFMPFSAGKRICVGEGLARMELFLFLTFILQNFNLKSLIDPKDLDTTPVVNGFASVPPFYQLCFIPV

COc1cc(CNC(=O)C[C@H](C)CCC=C(C)C)ccc1O — growth percent (SN12C; SRB; 10 µM, 48 h): 82.2%
[64Cu+2].c1ccc(CNCc2ccc(CN3CCCN4CCNCCCN(CC4)CC3)cc2)nc1 — tissue uptake (CXCR4; NOD/SCID mouse, U87 and U87-stb-CXCR4 xenografts, liver; iv, 90 min, ex vivo, with: AMD3465 25 mg/kg sc before tracer): 26.5 ± 3.2 %ID/g
CC[C@H]1[C@@H](O)[C@@H]2[C@H](CC[C@]3(C)[C@@H]([C@H](C)CCOS(=O)(=O)[O-])CC[C@@H]23)[C@@]2(C)CC[C@@H](O)C[C@@H]12.[Na+] — liver total cholesterol (ob/ob NASH mice, liver; oral, 3 mg/kg once daily, 8 wk): 24 ± 1.1 mg/g tissue
Cc1ccc(CN2C(=O)/C(=N\c3ccc(Cl)cc3Br)c3ccccc32)cc1 — inhibition (A-375; cell growth or viability; 1.8 µM): 48.1%
COc1ccc(NC(=O)N2CCCN3CCC(c4ccc(C#Cc5cccnn5)cc4)C3C2)cc1 (stereo not shown) — EC90 (Toxoplasma gondii; parasite growth; HFF, RH type I luciferase): 3.63 ± 0.13 µM
O=C1OCC2=C1C(c1cccc(Br)c1)C1=C(N2)C(=O)c2ccccc2C1=O (stereo not shown) — cells in G0/G1 phase (SK-LU-1 cells; PI flow cytometry; 0.32 µM, 24 h): 0.03%
COc1cc(CNC(=O)C[C@H](C)CCC=C(C)C)ccc1OCc1cn(-c2ccc(Br)cc2)nn1 — growth percent (CAKI-1; SRB; 10 µM, 48 h): 28.8%
[64Cu+2].c1cnc(CNCc2ccc(CN3CCCN4CCNCCCN(CC4)CC3)cc2)nc1 — tissue uptake (CXCR4; NOD/SCID mouse, U87 and U87-stb-CXCR4 xenografts, pancreas; iv, 240 min, ex vivo): 1.6 ± 0.25 %ID/g
CC/C=C\C/C=C\C/C=C\C/C=C\C/C=C\C/C=C\CCC(=O)Nc1ccn(C2OC(CO)C(O)C2(F)F)c(=O)n1 (stereo not shown) — GI50 (NCI-H322M; cell growth or viability, SRB): 1.18 µM
COc1cc(CNC(=O)C[C@H](C)CCC=C(C)C)ccc1OCc1cn(-c2ccccc2F)nn1 — growth percent (SK-MEL-5 melanoma cells; SRB; 10 µM, 48 h): 70.8%
Cc1nc(C)c(C=[N+]([O-])C(C)(C)C)nc1C — increase in protein level (primary rat midbrain neurons; Western blot, item: SIRT1; 300 µM, with: 20 µM MPP+): 101%
COc1cc(CNC(=O)C[C@H](C)CCC=C(C)C)ccc1OCc1cn(-c2ccccc2)nn1 — growth percent (TK-10; SRB; 10 µM, 48 h): 88.5%
CC(=O)Oc1ccccc1C(=O)[O][Pt]([NH2])([NH2])([Cl])([Cl])[O]C(=O)CCCc1ccccc1 — depolarised mitochondria cells (PSN1; 1 µM, 24 h): 30 to 40%
N=C(N/N=C/c1cc(C(F)(F)F)cc(C(F)(F)F)c1)N/N=C/c1cc(C(F)(F)F)cc(C(F)(F)F)c1 — selectivity ratio (PANC-1; crystal violet; 72 h; relative to: IC50 IMR-90 over IC50 PANC-1): 1.6
CO[C@H]1N(OC)c2ccccc2[C@@]12CN=C(Nc1cc(C(F)(F)F)cc(C(F)(F)F)c1)S2 (relative stereo) — G2/M phase cells (HCT-116; PI flow cytometry; 40 µM, 48 h): 6.22 ± 1.45%
COc1cc(CNC(=O)C[C@H](C)CCC=C(C)C)ccc1OCc1cn(-c2ccc(Cl)c(Cl)c2)nn1 — growth percent (SK-OV-3 ovarian cancer cells; SRB; 10 µM, 48 h): 99%
COC(=O)c1cnc(-c2cnccn2)cc1C(=O)OC.COC(=O)c1cnc(-c2cnccn2)cc1C(=O)OC.O.O.O.O=S(=O)([O-])C(F)(F)F.O=S(=O)([O-])C(F)(F)F.[Cu+2] — fluorescence quenching (calf thymus DNA; ethidium bromide displacement): 5.4%
Cc1cc(O)c(C=O)c2c1C(=O)Oc1c(CO)c(O)c3c(c1O2)C(O)OC3=O (stereo not shown) — corpora lutea per female (mating test; rat, male, streptozotocin-induced diabetes; 10 mg/kg): 12.3 ± 0.48
C=CC(=O)Nc1cc(Nc2nccc(-c3cn(C)c4ccccc34)n2)c(OCC(F)(F)F)nc1N(C)CCN(C)C — activity vs control (Cytochrome P450 2C19 (CYP2C19, Homo sapiens, UniProt P33261); enzyme activity, inhibitor; human, liver microsomes; 10 µM): 104%
CCC(C(=O)O)C1CCC(C)C(C(C)C(O)C(C)C(=O)C(CC)C2OC3(C=CC(NCc4cn(CSc5ccccc5)nn4)C4(CCC(C)(C5CCC(O)(CC)C(C)O5)O4)O3)C(C)CC2C)O1 (stereo not shown) — selectivity ratio (HMLER; cell proliferation; relative to: IC50 CD24high/CD44low over IC50 CD24low/CD44high): 32.7
FC(F)(F)c1ccnc(-c2cc(C(F)(F)F)ccn2)c1.FC(F)(F)c1ccnc(-c2cc(C(F)(F)F)ccn2)c1.[Cl-].[Cl-].[Ru+2].c1csc(-c2ccc(-c3ccc(-c4nc5c6cccnc6c6ncccc6c5[nH]4)s3)s2)c1 — EC50 (SK-MEL-28; cell viability, resazurin; visible light, hypoxia 1% O2): 0.3 to 0.87 µM
CCC(=C(c1ccc(Cl)cc1)c1ccc(OCCN(CC)CC)cc1)c1ccc(OC)cc1 — alkaline phosphatase activity (Ishikawa; 10 µM, 72 h, unit not given; relative to: DMSO): 0
CC(=O)OC[C@H]1O[C@@H](Sc2sc(C(=O)c3ccc(Br)cc3)c(N)c2-c2nc3ccccc3s2)[C@H](OC(C)=O)[C@@H](OC(C)=O)[C@H]1OC(C)=O — growth (UACC-257; SRB; 10 µM, 48 h; relative to: untreated): 104%
COc1cc(CNC(=O)C[C@H](C)CCC=C(C)C)ccc1OCc1cn(-c2cccc([N+](=O)[O-])c2)nn1 — growth percent (SK-OV-3 ovarian cancer cells; SRB; 10 µM, 48 h): 95.9%
CC(=O)N[C@H](C(=O)N[C@H](C(=O)N[C@@H](CCCNC(=N)N)C(=O)N1Cc2ccccc2C[C@H]1C(=O)N[C@@H](Cc1ccccc1)C(N)=O)C1CCCCC1)C(C)C — cytokine level (human PBMC; Bio-Plex multiplex, item: GM-CSF; 250 µg/mL, 24 h): < 6.9 pg/mL
COc1ccc([C@@H]2CC(=O)c3c(O)cc(O[C@@H]4O[C@H](CO[C@@H]5O[C@@H](C)[C@H](O)[C@@H](O)[C@H]5O)[C@@H](O[C@H]5O[C@H](CO)[C@@H](O)[C@H](O)[C@H]5O)[C@H](O)[C@H]4O)cc3O2)cc1O — gap closure (A549; cell migration, scratch; 50 µg/mL, 24 h): 4.46 ± 0.73%
Cc1ccc(NC(=O)N2CCCN3CCC(c4ccc(C#CC5CCCC5O)cc4)C3C2)cc1 (stereo not shown) — EC90 (Toxoplasma gondii; parasite growth; HFF, RH type I luciferase): 0.52 ± 0.06 µM
O=Cc1c(O)ccc2ccccc12 — mRNA level (hCMEC/D3; qPCR, item: KLF2; 50 µM, 12 h; relative to: control): ~2.3 fold

Some of these lines once more:
O=Cc1c(O)ccc2ccccc12 — mRNA level (hCMEC/D3; qPCR, item: KLF2; 50 µM, 12 h; relative to: control): ~2.3 fold
N=C(N/N=C/c1cc(C(F)(F)F)cc(C(F)(F)F)c1)N/N=C/c1cc(C(F)(F)F)cc(C(F)(F)F)c1 — selectivity ratio (PANC-1; crystal violet; 72 h; relative to: IC50 IMR-90 over IC50 PANC-1): 1.6
